Experimental data gathered from unrelated publications.
Each numbered part is a random draw from the data of one study; scales do not carry over between parts.

Set 1
Target: Interferon regulatory factor 5, full length, phosphomimetic (IRF5, Homo sapiens, UniProt Q13568-2, residues 1-514, S451D/S453D/S456D/S462D)
Technique: protein-binding microarray
Form: double-stranded DNA, one strand shown
Matrix: in vitro
Tested at: 940 nM top
Setting: 60-bp whole probe
Added: salmon DNA 0.4 mg/ml
Relative to: random background probes
Direction: higher = stronger binding
Endpoint: fitted relative affinity
All sequences stand within: GCCTAGCAC … GTCTTGATTCGCTTGACGCTGCTG
TTAGGTTCCGGTTTCGCTTAGTGCTAG: 6.67 z-score
CCAGGCTGAAAGACCTCTGAGTGCTAG: -0.638 z-score
TTAGGACTTGGTTTCGGTTAGTGCTAG: 9.25 z-score
TCAATTTTCAGTATTACACTGTGCTAG: 1.1 z-score
GACGATATCAGACTGCAGACGTGCTAG: -0.531 z-score
TTCGATCTCAGTCTCGATTAGTGCTAG: 3.23 z-score
CACGGTTTCGACTTTCGGGACGTGCTA: 7.41 z-score
CTTTAACTCATTTTCGTTTTGTGCTAG: 1.55 z-score
TTAGGTATCAACTATCGGTTAGTGCTA: 2.04 z-score
GACGGTCTCGGTTTCGGGACGTGCTAG: 6.36 z-score
GACGGTATTGGGACTGGGGACGTGCTA: 0.244 z-score
TTAGGTACCCTTCTCCTTTAGTGCTAG: 0.113 z-score
TTAGATTTGAGTTTCGATTAGTGCTAG: 8.61 z-score
GACGATATCAGTAACGAGACGTGCTAG: 0.0404 z-score
TTAGGTATCGCTTTCGGTTAGTGCTAG: 7.07 z-score
TTAGAACTGAGTTTCGATAAGTGCTAG: 7.33 z-score
TCCTCTTTCACTGCTCCCCAAGTGCTA: 2.2 z-score
TTAGGTATCCTTATCCTTAAGTGCTAG: 0.429 z-score
GACGGTCTCGGTCACGGGACGTGCTAG: 3.6 z-score

Set 2
Target: Histone acetyltransferase KAT6A, winged helix 2, GST fusion (KAT6A, Homo sapiens, UniProt Q92794, residues 85-181)
Technique: protein binding microarray
Form: double-stranded DNA, one strand shown
Matrix: in vitro
Tested at: not given
Setting: 8-mer, flanks averaged, mean of 2 arrays, mostly near background
Relative to: not given
Direction: higher = stronger binding
Endpoint: E-score
Construct (chain): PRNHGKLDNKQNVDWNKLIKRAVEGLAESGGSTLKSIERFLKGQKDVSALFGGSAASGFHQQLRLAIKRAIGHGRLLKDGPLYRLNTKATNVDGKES
TCGAGGCA: 0.171
CTAGAAAC: -0.0888
AGCCCCCC: -0.22
GACAATAA: -0.0846
CACTGCGA: 0.162
GTCGCGTA: 0.0617
ACGACAAT: 0.0178
GCATCTAC: -0.0821
AAGTGAGG: -0.0551
CGGACAGA: 0.0435
ACCGGTTC: -0.148
CTGGGCGC: -0.13
ACACTTAT: -0.235
ACGACTAC: -0.3
AGGTAGGA: -0.118
AGGAGTCC: -0.11
CGCTGTCA: 0.0855
CCGTGCGA: 0.208

Set 3
Target: RING finger protein unkempt homolog, zinc fingers 1-6, GST-SBP tag (UNK, Homo sapiens, UniProt Q9C0B0, residues 30-357)
Technique: RNA Bind-n-Seq
Form: RNA
Matrix: in vitro
Tested at: not given
Setting: RNA with constant flanks, human and mouse sites, ends assumed
Relative to: input RNA pool
Direction: higher = stronger binding
Endpoint: bound/input enrichment
All sequences stand within: GGGAGUUCUACAGUCCGACGAUC … CAACAGAGGAUUGAGCAUCA
Residues (chain): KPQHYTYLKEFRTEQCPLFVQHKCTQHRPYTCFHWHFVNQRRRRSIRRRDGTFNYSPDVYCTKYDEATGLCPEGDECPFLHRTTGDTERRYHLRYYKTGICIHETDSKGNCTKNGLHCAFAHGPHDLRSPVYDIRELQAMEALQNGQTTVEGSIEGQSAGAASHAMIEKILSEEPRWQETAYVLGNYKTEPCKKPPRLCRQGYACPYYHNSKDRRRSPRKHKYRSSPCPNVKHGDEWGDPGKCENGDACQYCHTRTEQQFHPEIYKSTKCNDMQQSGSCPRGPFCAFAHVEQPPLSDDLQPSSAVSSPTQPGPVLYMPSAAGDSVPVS
GGAUUUAGAAGCCAAGUAAAUGUCAUUGGGAAGGAGAGCUACCACCACUGAGUGCUGAACAGUAAACUCAUUUUUCAGAGUUAAAAAAUUAUUUAAAAAAACAAGAUGGGGACUCCUGGU: 1.27 ratio
UUCAAUCCAUUGAAAGCAUCCGGGGAUGGAGAAUCACUGGAUGAAGAUUCUGAAUUCACAUUAGCCUCUGAUUUUGAAAUUGGACACUUUUUCCGUGAGCGGAUAGUCCCGCGGGCUGUG: 0.514 ratio
CAUUGUCCAGCAUCAGGUAUACGAGGGACAGUGUAUCCAGUUGUUUAUGUUGAUGACAGUGCAAUUUUGGAUUGCCAGUUCAGUGAGUUUUAUCAUACGCCUCCACCUGGUUUUGAAAAA: 0.0869 ratio
GAGUACAAUCUCUUUUCUAGGAAGAUAGAAGAGAUUUUGAAGCAAAAGAAUGUUUCAUAUGUCAGUACAGUUUCCACACCUAUCUUUUCAACACAAGAGAAGAUGAAACGGCUUUCCGAG: 0.116 ratio
CAGCGGCAGUCUUUCCCCCCUGUGUGCACCCACAAUAUGCUGGAUGACUCCUCAGACCCCAUCCUGACCACCAUCCGCCGAAUCGGCCUCUUCAAUAGCAGUGCCGACAGGGUGAAGGUG: 0.226 ratio
GACUUCACUGUAUUUGAAAGGAUAUCUCUUGCCUGGAGCCCAAUUACAUCUUUAAUGUGGGCUUGUGGUCGCCAUUUGUAUGAGUGUGCAGAAGAAGAAAGUGAUAACUCCUUAGAAAAA: 0.352 ratio
CUACUUCCCUGCCCCUCCCUAAUCAGUAUUCUUUCAAGAGUUCUUUGGUGAAGCCAUCUAUCUGAAACUAAAAUGAACCAAACCCAUAUUUCACUGGUGGUUGGAGAAAACCAUGGCCAA: 0.434 ratio
UUGUAUUUUCUAUCCAAAGAAAUAUAUGUGAUUACCCCAGAGACCUUCUCUACCAUAUCAGUAGUAGGGUUGAUAGUCUAUGUGAUUAAGAAAUAUGGCGCCUCUUUUGGAGAAUUUAUU: 0.644 ratio
AUGACAGGAAACAUCCCAACAUGGCUUACUGAGCUAGGAAAAACCUGCCCAUUUUUCUUUCCUUUUGAUACCCGGCAAAUGCUUUUUUAUGUAACUGCAUUUGAUCGGGACCGAGCAAUG: 0.192 ratio
GUCGGUUUCAUUUUCCUUUGGAAUUUCUGCUUUACAGACAGAACAAUGGCAGCCCGAGUACUUAUAAUUGGCAGUGGAGGAAGGGAACAUACGCUGGCCUGGAAACUUGCACAGUCUCAU: 0.357 ratio
AGUCUUCAGGAUACUGUAGCUUCCUCUGUAGAGAACUUCGUUUUAAUAGACACUGUACAAUAGUGGUGUUUUACUUCACUGAAUCACACCUUUGUUCUGAAAGUGUGAUACAGAGUAUAA: 2.15 ratio

Set 4
Target: RNA binding protein fox-1 homolog 2, RRM domain, GST-SBP tag (RBFOX2, Homo sapiens, UniProt O43251-10, residues 100-194)
Technique: RNA Bind-n-Seq
Form: RNA
Matrix: in vitro
Tested at: 365 nM
Setting: natural RNA segment, single round, ends assumed
Relative to: no-protein control
Direction: higher = stronger binding
Endpoint: RBNS enrichment (R)
All sequences stand within: GGGAGUUCUACAGUCCGACGAUC … UGGAAUUCUCGGGUGCCAA
Target sequence (chain): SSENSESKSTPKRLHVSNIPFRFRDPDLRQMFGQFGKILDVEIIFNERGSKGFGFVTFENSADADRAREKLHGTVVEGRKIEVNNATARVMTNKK
AAGUUUUAACUUUAAUACAGCUCAGUAAAUGGCUUCUUCUAGAAUGUAAAGUUAUGUAUUUAAAGUUGUAUCUUGACACAGGAAAUGGGAAAAAACUUAAAAAUUAAUAU: 1.07
GUGGGGGGGUAUCCAGAAUUGGUUGUAAAUACUUUGCAUAUUGUCUGAUUAAACACAAACAGACCUCAGAAUCUGAUCAACAGUUUAUUGAACAUCUACUGUGUGCUGGA: 0.632
CAUUUGUUCAUCAAGAUCAAUAGAAUCUUACCAGUGGGUAGGAAAGGAUCAUAUAAAAUAUGAAGAAAUAGCCAUAUUAAAUUUUUUGCUGUCAUUUGCCUCCGCAACAA: 0.431
UCUUUUGUAACUUUGCAGACAAAUAAGUAUGAGUCACUGGGGAGAGAGUUUGUUAUUGAAAUAGAUGUUGCCCAUGAAGAAUUCUCCUUCCUGGAUUGACUCUUAAUCAU: 0.318
CAGACAAUAAUUUGAAGCGUCUGUAUUCAGCAAAGAUAAAUACAGCAGUCCAGUCUAUAGGUGCUCUACUUAGCAUUCUUUUCAUGUGCUCCUGGUCUCUGUCUCACUCA: 0.272
UGUCUCUCUAGAAGAGCUUAUGCAAGCUUGGGGAUCUAGAUGAUUAAAUCCUUCAGGGGCGGGGACCGCCUUGCUCGGGAAGGAAGGUGCCAUGGCCUGCACCGUGGCGG: 0.273
GUGGGCCUGGUAGCACAUGUCUGUCCUCAGCCGGACAGAUGCUUUCUCUCCUGGUUUGCAGCUGUCUUCAAAUCCCCCCAUGACCCGCUCUUCCCACUCCUUCAAGUUGC: 0.342
CACCUCACACCAAGAAUCUUGCCUAACCCUGUCAGAGUGCCUAAUAUCCUGUGGUGAUUAUGUAUAAUGAAACAGUCUUAUUUUGUGCUCUUUGGUUUCUUAAAAGGAAA: 0.337
AUUUGCACAAAAAGAUACCUUAAAAUUUGAAACAUUGCUUUUAAAACUACUUAGCACUUCAGGGCAGAUUUUAGUUUUAUUUUCUAAAGUACUGAGCAGUGAUAUUCUUU: 0.462
UCUCCCCACCCAGCUACUCGAAGCUCACUUCCUAAAGCUGCAGGGCUGCCUCGGGCAGGGCCUCCGGCCUCCGGCGCUCUCCCAGGAGGAGGUCAAGUUCCACACGCACG: 0.239
AUUCCAUUCGCAAAUCUCUACUAUCAGGAGAGAAAAGAGAUGAAAUUUAAAACACACAAGCAAAACGUUUCCAUGUAAACAUCUAUUUCUAAACUUAUAUAAUGACCUGA: 0.499
UCAUACCAAUCUCUACGGGAAAGAGAGGUAGGAGAGGCUGCGAGGAAGCUUGGGUUCAAGCGUCACUCAUCUGUACAUAGUUGUAACUCCCAUGUGGAGUAUCAGUCGCU: 0.461

Some of these lines once more (set 1):
TTAGGTATCCTTATCCTTAAGTGCTAG: 0.429 z-score
GACGGTATTGGGACTGGGGACGTGCTA: 0.244 z-score
TTAGAACTGAGTTTCGATAAGTGCTAG: 7.33 z-score
TTCGATCTCAGTCTCGATTAGTGCTAG: 3.23 z-score
CACGGTTTCGACTTTCGGGACGTGCTA: 7.41 z-score
TTAGATTTGAGTTTCGATTAGTGCTAG: 8.61 z-score
GACGGTCTCGGTCACGGGACGTGCTAG: 3.6 z-score
